Measurements collected from several papers.
Protocols differ between the studies behind these lines. Several values in a cell are separate wells, animals, samples, runs or records.
B1: 6-pyruvoyl tetrahydropterin synthase (human); sequence looked up; chain MSTEGGGRRCQAQVSRRISFSASHRLYSKFLSDEENLKLFGKCNNPNGHGHNYKVVVTVHGEIDPATGMVMNLADLKKYMEEAIMQPLDHKNLDMDVPYFADVVSTTENVAVYIWDNLQKVLPVGVLYKVKVYETDNNIVVYKGE
B2: lacI 1-360 D149C (Escherichia coli, UniProt P03023); chain MKPVTLYDVAEYAGVSYQTVSRVVNQASHVSAKTREKVEAAMAELNYIPNRVAQQLAGKQSLLIGVATSSLALHAPSQIVAAIKSRADQLGASVVVSMVERSGVEACKAAVHNLLAQRVSGLIINYPLDDQDAIAVEAACTNVPALFLCVSDQTPINSIIFSHEDGTRLGVEHLVALGHQQIALLAGPLSSVSARLRLAGWHKYLTRNQIQPIAEREGDWSAMSGFQQTMQMLNEGIVPTAMLVANDQMALGAMRAITESGLRVGADISVVGYDDTEDSSCYIPPLTTIKQDFRLLGQTSVDRLLQLSQGQAVKGNQLLPVSLVKRKTTLAPNTQTASPRALADSLMQLARQVSRLESGQ
B3: HdeA mature (Escherichia coli, UniProt P0AES9); sequence looked up; chain ADAQKAADNKKPVNSWTCEDFLAVDESFQPTAVGFAEALNNKDKPEDAVLDVQGIATVTPAIVQACTQDKQANFKDKVKGEWDKIKKDM
B4: KCNJ13 2-360 (Homo sapiens, UniProt O60928-1); sequence looked up; chain DSSNCKVIAPLLSQRYRRMVTKDGHSTLQMDGAQRGLAYLRDAWGILMDMRWRWMMLVFSASFVVHWLVFAVLWYVLAEMNGDLELDHDAPPENHTICVKYITSFTAAFSFSLETQLTIGYGTMFPSGDCPSAIALLAIQMLLGLMLEAFITGAFVAKIARPKNRAFSIRFTDTAVVAHMDGKPNLIFQVANTRPSPLTSVRVSAVLYQERENGKLYQTSVDFHLDGISSDECPFFIFPLTYYHSITPSSPLATLLQHENPSHFELVVFLSAMQEGTGEICQRRTSYLPSEIMLHHCFASLLTRGSKGEYQIKMENFDKTVPEFPTPLVSKSPNRTDLDIHINGQSIDNFQISETGLTE
B5: protein (Penicillium verruculosum, UniProt A0A348FUE1); sequence looked up; chain MSPMDLQESAAALVRQLGERVEDRRGFGFMSPAIYDTAWVSMISKTIDDQKTWLFAECFQYILSHQLEDGGWAMYASEIDAILNTSASLLSLKRHLSNPYQITSITQEDLSARINRAQNALQKLLNEWNVDSTLHVGFEILVPALLRYLEDEGIAFAFSGRERLLEIEKQKLSKFKAQYLYLPIKVTALHSLEAFIGAIEFDKVSHHKVSGAFMASPSSTAAYMMHATQWDDECEDYLRHVIAHASGKGSGGVPSAFPSTIFESVWPLSTLLKVGYDLNSAPFIEKIRSYLHDAYIAEKGILGFTPFVGADADDTATTILVLNLLNQPVSVDAMLKEFEEEHHFKTYSQERNPSFSANCNVLLALLYSQEPSLYSAQIEKAIRFLYKQFTDSEMDVRDKWNLSPYYSWMLMTQAITRLTTLQKTSKLSTLRDDSISKGLISLLFRIASTVVKDQKPGGSWGTRASKEETAYAVLILTYAFYLDEVTESLRHDIKIAIENGCSFLSERTMQSDSEWLWVEKVTYKSEVLSEAYILAALKRAADLPDENAEAAPVINGISTNGFEHTDRINGKLKVNGTNGTNGSHETNGINGTHEIEQINGVNGTNGHSDVPHDTNGWVEEPTAINETNGHYVNGTNHETPLTNGISNGDSVSVHTDHSDSYYQRSDWTADEEQILLGPFDYLESLPGKNMRSQLIQSFNTWLKVPTESLDVIIKVISMLHTASLLIDDIQDQSILRRGQPVAHSIFGTAQAMNSGNYVYFLALREVQKLQNPKAISIYVDSLIDLHRGQGMELFWRDSLMCPTEEQYLDMVANKTGGLFCLAIQLMQAEATIQVDFIPLVRLLGIIFQICDDYLNLKSTAYTDNKGLCEDLTEGKFSFPIIHSIRSNPGNRQLINILKQKPREDDIKRYALSYMESTNSFEYTRGVVRKLKTEAIDTIQGLEKHGLEENIGIRKILARMSLEL
B6: trfB Q53E (Escherichia coli, UniProt P03052); sequence looked up; chain MKKRLTESQFQEAIQGLEVGQQTIEIARGVLVDGKPQATFATSLGLTRGAVSEAVHRVWAAFEDKNLPEGYARVTAVLPEHQAYIVRKWEADAKKKQETKR
B7: SUN5 (Homo sapiens, UniProt Q8TC36); sequence looked up; chain MPRSSRSPGDPGALLEDVAHNPRPRRIAQRGRNTSRMAEDTSPNMNDNILLPVRNNDQALGLTQCMLGCVSWFTCFACSLRTQAQQVLFNTCRCKLLCQKLMEKTGILLLCAFGFWMFSIHLPSKMKVWQDDSINGPLQSLRLYQEKVRHHSGEIQDLRGSMNQLIAKLQEMEAMSDEQKMAQKIMKMIHGDYIEKPDFALKSIGASIDFEHTSVTYNHEKAHSYWNWIQLWNYAQPPDVILEPNVTPGNCWAFEGDRGQVTIQLAQKVYLSNLTLQHIPKTISLSGSLDTAPKDFVIYGMEGSPKEEVFLGAFQFQPENIIQMFPLQNQPARAFSAVKVKISSNWGNPGFTCLYRVRVHGSVAPPREQPHQNPYPKRD
B8: ADAR1 127-end 127-1226 P193A (human, UniProt P55265); sequence looked up; chain SSHFQELSIYQDQEQRILKFLEELGEGKATTAHDLSGKLGTPKKEINRVLYSLAKKGKLQKEAGTPALWKIAVSTQAWNQHSGVVRPDGHSQGAPNSDPSLEPEDRNSTSVSEDLLEPFIAVSAQAWNQHSGVVRPDSHSQGSPNSDPGLEPEDSNSTSALEDPLEFLDMAEIKEKICDYLFNVSDSSALNLAKNIGLTKARDINAVLIDMERQGDVYRQGTTPPIWHLTDKKRERMQIKRNTNSVPETAPAAIPETKRNAEFLTCNIPTSNASNNMVTTEKVENGQEPVIKLENRQEARPEPARLKPPVHYNGPSKAGYVDFENGQWATDDIPDDLNSIRAAPGEFRAIMEMPSFYSHGLPRCSPYKKLTECQLKNPISGLLEYAQFASQTCEFNMIEQSGPPHEPRFKFQVVINGREFPPAEAGSKKVAKQDAAMKAMTILLEEAKAKDSGKSEESSHYSTEKESEKTAESQTPTPSATSFFSGKSPVTTLLECMHKLGNSCEFRLLSKEGPAHEPKFQYCVAVGAQTFPSVSAPSKKVAKQMAAEEAMKALHGEATNSMASDNQPEGMISESLDNLESMMPNKVRKIGELVRYLNTNPVGGLLEYARSHGFAAEFKLVDQSGPPHEPKFVYQAKVGGRWFPAVCAHSKKQGKQEAADAALRVLIGENEKAERMGFTEVTPVTGASLRRTMLLLSRSPEAQPKTLPLTGSTFHDQIAMLSHRCFNTLTNSFQPSLLGRKILAAIIMKKDSEDMGVVVSLGTGNRCVKGDSLSLKGETVNDCHAEIISRRGFIRFLYSELMKYNSQTAKDSIFEPAKGGEKLQIKKTVSFHLYISTAPCGDGALFDKSCSDRAMESTESRHYPVFENPKQGKLRTKVENGEGTIPVESSDIVPTWDGIRLGERLRTMSCSDKILRWNVLGLQGALLTHFLQPIYLKSVTLGYLFSQGHLTRAICCRVTRDGSAFEDGLRHPFIVNHPKVGRVSIYDSKRQSGKTKETSVNWCLADGYDLEILDGTRGTVDGPRNELSRVSKKNIFLLFKKLCSFRYRRDLLRLSYGEAKKAARDYETAKNYFKKGLKDMGYGNWISKPQEEKNFYLCPV
B9: PsbS mature P132A (Arabidopsis thaliana, UniProt Q9XF91); sequence looked up; chain AAPKKVEKPKSKVEDGIFGTSGGIGFTKANELFVGRVAMIGFAASLLGEALTGKGILAQLNLETGIPIYEAEALLLFFILFTLLGAIGALGDRGKFVDDPPTGLEKAVIPPGKNVRSALGLKEQGPLFGFTKANELFVGRLAQLGIAFSLIGEIITGKGALAQLNIETGIPIQDIEPLVLLNVAFFFFAAINPGNGKFITDDGEES
B10: protein 1-735 (UniProt C7Z7K1); chain MSNLKDFSQPGSGQESNFGVDFVIHYKVPAAERDEAEAGFVQLIRALTTVGLATEVRHGENESLLVFVKVASPDLFAKQVYRARLGDWLHGVRVSAPHNDIAQALQDEPVVEAERLRLIYLMITKPHNEGGAGVTPTNAKWKHVESIFPLHSHSFNKEWIKKWSSKYTLEQTDIDNIRDKFGESVAFYFAFLRSYFRFLVIPSAFGFGAWLLLGQFSYLYALLCGLWSVVFFEYWKKQEVDLAVQWGVRGVSSIQQSRPEFEWEHEAEDPITGEPVKVYPPMKRVKTQLLQIPFALACVVALGALIVTCNSLEVFINEVYSGPGKQYLGFLPTIFLVIGTPTISGVLMGAAEKLNAMENYATVDAHDAALIQKQFVLNFMTSYMALFFTAFVYIPFGHILHPFLNFWRATAQTLTFSEKELPTREFQINPARISNQMFYFTVTAQIVNFATEVVVPYIKQQAFQKAKQLKSGSKVQEDHEEEAEFLQRVREECTLEEYDVSGDYREMVMQFGYVAMFSVAWPLAACCFLVNNWVELRSDALKIAISSRRPIPWRTDSIGPWLTALSFLSWLGSITSSAIVYLCSNSKNGTQGEASPLKAWGLLLSILFAEHFYLVVQLAVRFVLSKLDSPGLQKERKERFQTKKRLLQENLGQDAAEEAAAPGIEHSEKITREALEEEARQASIRGHGTPEEMFWQRQRGMQETIEIGRRMIEQQLAAGKNGKKSAPAVPSEKAS
B11: MB 2-154 G80A/H81A/H82A (Equus caballus, UniProt P68082); chain GLSDGEWQQVLNVWGKVEADIAGHGQEVLIRLFTGHPETLEKFDKFKHLKTEAEMKASEDLKKHGTVVLTALGGILKKKAAAEAELKPLAQSHATKHKIPIKYLEFISDAIIHVLHSKHPGDFGADAQGAMTKALELFRNDIAAKYKELGFQG
B12: irisin mature, refolded (not on card, UniProt Q8NAU1); sequence looked up; chain DSPSAPVNVTVRHLKANSAVVSWDVLEDEVVIGFAISQQKKDVRMLRFIQEVNTTTRSCALWDLEEDTEYIVHVQAISIQGQSPASEPVLFKTPREAEKMASKNKDEVTMKE
B13: CRYBA1 (Homo sapiens, UniProt P05813-1); sequence looked up; chain METQAEQQELETLPTTKMAQTNPTPGSLGPWKITIYDQENFQGKRMEFTSSCPNVSERSFDNVRSLKVESGAWIGYEHTSFCGQQFILERGEYPRWDAWSGSNAYHIERLMSFRPICSANHKESKMTIFEKENFIGRQWEISDDYPSLQAMGWFNNEVGSMKIQSGAWVCYQYPGYRGYQYILECDHHGGDYKHWREWGSHAQTSQIQSIRRIQQ
B14: cfbA 1-143 S11A (Methanocaldococcus jannaschii, UniProt Q58380); chain MEALVLVGHGARLPYSKELLVKLAEKVKERNLFPIVEIGLMEFSEPTIPQAVKKAIEQGAKRIIVVPVFLAHGIHTTRDIPRLLGLIEDNHEHHHEHSHHHHHHHHHEHEKLEIPEDVEIIYREPIGADDRIVDIIIDRAFGR
UniProt Q61937, sequence (whole entry, looked up): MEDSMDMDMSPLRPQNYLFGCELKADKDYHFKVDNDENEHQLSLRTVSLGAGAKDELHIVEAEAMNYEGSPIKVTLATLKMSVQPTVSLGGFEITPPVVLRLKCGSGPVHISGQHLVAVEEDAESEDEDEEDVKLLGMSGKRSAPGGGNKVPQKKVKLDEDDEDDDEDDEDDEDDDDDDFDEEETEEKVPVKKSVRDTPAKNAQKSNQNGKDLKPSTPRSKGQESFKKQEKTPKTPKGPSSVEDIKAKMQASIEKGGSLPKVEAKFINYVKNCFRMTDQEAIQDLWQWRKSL

RQHLLPLLRRLARRLSSQDMREALLSCLLFVLSQQQPPDSGEASRVDHSQRKERLGPQK (Mymx ectodomain 26-84 (UniProt Q2Q5T5); sequence looked up) — subunits per oligomer (itself; SDS-PAGE): 2
B1 — log2 fold change (CYB5R4 knockout human cells; PP4 interaction, 3xFLAG-PP4C IP-MS; concentration not given; relative to: CYB5R4 KO over parental): 1.18
B2 (lacI 1-360 D149C) — subunits per oligomer (itself; SEC): 4
B3 (HdeA mature) — subunits per oligomer (itself; SEC-MALS): 2
B4 (KCNJ13 2-360) — subunits per oligomer (itself; SEC): 4
B5 (protein) — subunits per oligomer (itself; SEC-MALS): 2
B6 (trfB Q53E) — subunits per oligomer (itself; SEC): 2
B7 (SUN5) — subunits per oligomer (itself; cryo-EM structure): 3
B8 (ADAR1 127-end 127-1226 P193A) — subunits per oligomer (itself; SEC): 2
B9 (PsbS mature P132A) — subunits per oligomer (itself; native PAGE; not purified): 2
MKGMSKMPQFLLRWPREVLDLVRKVAEENGRSVNSEIYQRVMESFKKEGRIGA (Arc repressor 1-53 N11L (P22 phage, UniProt P03050)) — subunits per oligomer (itself; SEC): 2
B10 (protein 1-735) — subunits per oligomer (itself; cryo-EM): 2
Npm1 (Mus musculus, UniProt Q61937) — subunits per oligomer (itself; native PAGE; not purified; not purified): 5
B11 (MB 2-154 G80A/H81A/H82A) — subunits per oligomer (itself; SEC-MALS; apo): 2
B12 (irisin mature, refolded) — subunits per oligomer (itself; SEC): 2
B13 (CRYBA1) — subunits per oligomer (itself; native MS; 11.5 µM, pH 7.5): 6 and 4
B14 (cfbA 1-143 S11A) — subunits per oligomer (itself; SEC): 2

A few entries again:
B11 (MB 2-154 G80A/H81A/H82A) — subunits per oligomer (itself; SEC-MALS; apo): 2
